Results gathered from unrelated publications.
Lines come from different studies, so protocols differ. Values joined by “and” are separate records of one study, mostly repeats; a detail may differ. ± marks the error that the study gave.
JAK2: Tyrosine-protein kinase JAK2 (JAK2, Homo sapiens, UniProt O60674)
CYP2C19: Cytochrome P450 2C19 (CYP2C19, Homo sapiens, UniProt P33261)
PTGS1: Prostaglandin G/H synthase 1 (PTGS1, Homo sapiens, UniProt P23219)
Seed linoleate 13S-lipoxygenase-1: Seed linoleate 13S-lipoxygenase-1 (Glycine max, UniProt P08170)
gag-pol reverse transcriptase: Gag-Pol polyprotein, reverse transcriptase (gag-pol, Human immunodeficiency virus 1, UniProt P03366)
FGFR2: Fibroblast growth factor receptor 2 (FGFR2, Homo sapiens, UniProt P21802)
CD38: ADP-ribosyl cyclase/cyclic ADP-ribose hydrolase 1 (CD38, Homo sapiens, UniProt P28907)
TPR: Trypanothione reductase (TPR, Trypanosoma brucei brucei, UniProt P39051)

COc1cc(-c2nc3ccc(C(=O)NCCCN4CCN(C(=O)c5ccccc5)CC4)cc3n2C2CCC2)cc(OC)c1OC — IC50 (Activin receptor type-1 (ACVR1, Homo sapiens, UniProt Q04771); target engagement in cells, BRET): 1.08 µM
CCOC(=O)N1CCC(Oc2nc3c(c(=O)n(C)c(=O)n3C)n2CCC(C)C)CC1 — IC50 (Aldehyde dehydrogenase, mitochondrial (ALDH2, Homo sapiens, UniProt P05091); enzyme activity, inhibitor): > 57 µM
CC1(C)C2CCC3(CC(c4ccccc4)c4c(O)c(C=O)c(O)c(C=O)c4O3)C1C2 (single isomer, unassigned; (+)) — IC50 (ATP-dependent 6-phosphofructokinase, muscle type (PFKM, Homo sapiens, UniProt P08237, K678R); enzyme activity, inhibitor; HEK293T cell lysate; mutant): > 100 µM
CCCc1nn(-c2ccccc2)c(O)c1-c1nc2ccccc2[nH]c1=O — IC50 (JAK2; enzyme activity, inhibitor, ADP detection): 0.0285 µM
C=C(NC(=O)C(=C)NC(=O)c1csc(C2=NC3c4csc(n4)C4NC(=O)c5csc(n5)C(C(C)(O)C(C)O)NC(=O)C5CSC(=N5)C(=CC)NC(=O)C(C(C)O)NC(=O)c5csc(n5)C3(CC2)NC(=O)C(Cc2c[nH]c3ccccc23)NC(=O)C(=C)NC(=O)C(C)NC(=O)C(C(C)CC)NC2C=Cc3c(C(C)O)cc(nc3C2O)C(=O)OC4C)n1)C(N)=O (centres unmarked) — IC50 (Proteasome subunit beta type-7, in 20S proteasome (PSMB7, Homo sapiens, UniProt Q99436); trypsin-like activity, inhibitor; purified 20S proteasome; 15 min preincubation, 37 °C, with: Boc-Leu-Arg-Arg-AMC substrate): > 0.19 µM
COc1cc(F)cc(-c2nc3ccc(C(=O)NCCCN(C)C)cc3n2C2CCC2)c1 — IC50 (Activin receptor type-1 (ACVR1, Homo sapiens, UniProt Q04771, R206H); binding, NanoBRET; HEK293): 13.4 µM
Cc1ccc(C(=O)N2CCN(c3ccc(F)cc3)CC2)cc1[N+](=O)[O-] — IC50 (SEC14 (Saccharomyces cerevisiae, UniProt P24280); enzyme activity, inhibitor, radiometric): 11.1 µM
CC(C)NCc1ccc(C[C@@H]2NC(=O)[C@@H](Cc3c[nH]c4ccccc34)NC(=O)[C@@H]3CCC(=O)NCCCCCC[C@H](NC(=O)[C@H](Cc4ccc(O)c(I)c4)NC(=O)[C@H]([C@@H](C)O)NC2=O)C(=O)N[C@@H](CO)C(=O)N[C@H](C(=O)O)CSSC[C@H](N)C(=O)N[C@@H](CCCCN)C(=O)N[C@@H](Cc2ccccc2)C(=O)N3)cc1 — IC50 (Somatostatin receptor type 3 (SSTR3, Homo sapiens, UniProt P32745); ligand displacement, radioligand; cell membranes): > 1 µM
CC(C)C[C@H](NC(=O)[C@@H](Cc1c[nH]c2ccccc12)NC(=O)[C@H](Cc1ccc(O)cc1)NC(=O)[C@H](CO)NC(=O)[C@H](Cc1c[nH]c2ccccc12)NC(=O)[C@H](Cc1c[nH]cn1)NC(=O)[C@@H]1CCC(=O)N1)C(=O)N[C@@H](CCCNC(=N)N)C(=O)N1CCC[C@H]1C(=O)NCC(N)=O — IC50 (Gonadotropin-releasing hormone receptor (Rattus norvegicus, UniProt P30969); binding, radioligand displacement; WPE-1-NB26-3 expressing Gonadotropin-releasing hormone receptor, whole cells; with: radioiodinated GnRH analogue): 0.0009 ± 0.0003 µM
C[C@](C(=O)NC1CCOCC1)(c1cncnc1)N(C(=O)[C@H](F)Cl)c1ccc(OC(F)(F)Cl)cc1 — IC50 (CYP2C19; enzyme activity, inhibitor; 10 (unit not given)): > 50 µM
CN1CCCC[C@H]1[C@@H](NC(=O)c1nccc(C(F)(F)F)c1Cl)c1cccc(-c2cn[nH]c2)c1 — IC50 (Sodium- and chloride-dependent glycine transporter 1 (Slc6a9, Mus musculus, UniProt P28571); [3H]glycine uptake, inhibitor; mouse brain homogenate): 0.005 µM
COc1ccc(C(=O)/C=C(\O)C(F)(F)C(F)(F)F)c(O)c1 — IC50 (formate-nitrite transporter (Plasmodium berghei, UniProt A0A509AFP9); L-lactate transport, inhibitor; yeast; pH 6.8, with: 14C-L-lactate 1 mM): 0.32 ± 0.03 µM
CC(C)c1ccc(Cn2ccc([C@H](C)[C@](O)(Cn3cnnn3)c3ccc(F)cc3F)n2)cc1 — IC50 (CYP2C19; enzyme activity, inhibitor; human, liver microsomes): 5.33 µM
COc1cc(O)ccc1CCC(c1ccc(O)cc1)c1cc2c(c(C)c1O)OC(c1ccc(O)cc1)CC2 (mixture of isomers) — IC50 (PTGS1; enzyme activity in cells, inhibitor): > 1 µM
CNC(=O)c1cc(C)ccc1NC(=O)c1ccc(-c2c(C)ccc3[nH]ncc23)c(C)c1 — IC50 (Tyrosine-protein kinase Yes (YES1, Homo sapiens, UniProt P07947); target engagement in cells, BRET): 27.5 µM
Cc1nc(N(C)C)nc(C)c1O — IC50 (Seed linoleate 13S-lipoxygenase-1; enzyme activity, inhibitor; pH 9.2): 593 µM
CCn1cnc(C[C@H](NC(=O)c2cnc(C)cn2)C(=O)N2CCC[C@H]2C(N)=O)c1 — IC50 (Thyrotropin-releasing hormone receptor (Mus musculus, UniProt P21761); ligand displacement, radioligand): > 50 µM
Nc1ncnc2c1ncn2CCOCP(=O)(O)OP(=O)(O)OP(=O)(O)O — IC50 (gag-pol reverse transcriptase; reverse transcriptase activity, inhibitor): 6.4 ± 0.8 µM
CNC(=O)C1CCN(c2ccccc2NC(=O)c2ccc(-c3ccccc3C)c(C)c2)CC1 — IC50 (Ephrin type-B receptor 2 (EPHB2, Homo sapiens, UniProt P29323); target engagement in cells, BRET): 13.5 µM
C=CCC(=N)NCCC[C@H](N)C(=O)O — IC50 (Nitric oxide synthase 1 (Nos1, Rattus norvegicus, UniProt P29476); item: cGMP; immature rat cerebellar slices; 2 min, with: NMDA 100 µM): 1.3 µM
Cc1cccc(-c2cc(C#N)cc(Oc3c(C(F)(F)F)ccn(Cc4n[nH]c(=O)n4C)c3=O)c2)c1 — IC50 (gag-pol reverse transcriptase; enzyme activity, inhibitor): 0.041 µM
CC[C@@H](O)/C=C/C=C\C[C@@H](O)/C=C/C=C/C=C\[C@@H](O)CCCC(=O)O — IC50 (Leukotriene B4 receptor 1 (LTB4R, Homo sapiens, UniProt Q15722); ligand displacement in cells, radioligand): ~0.5 µM
N#Cc1c(O)nsc1Nc1ccccc1C(F)(F)F — IC50 (NAD(+) hydrolase SARM1 (SARM1, Homo sapiens, UniProt Q6SZW1, C635A); enzyme activity, inhibitor): 12 µM
Fc1ccc(NCc2cn(-c3ccccc3)nc2-c2ccc(OCc3ccccc3)cc2)cc1Cl — IC50 (PTGS1; enzyme activity, inhibitor, absorbance): 137 µM
N#C/C(=C\c1cccc(-c2cnc3[nH]cnc3c2)c1)C(N)=O — IC50 (JAK2; kinase activity, inhibitor; up to highest tested, with: ATP at Km): > 10 µM
CCn1c(SC(C)C(=O)NC2CCCCC2)nnc1C1CCN(C(=O)Nc2ccccc2)CC1 (centres unmarked) — IC50 (Seed linoleate 13S-lipoxygenase-1; enzyme activity, inhibitor): < 7 µM and 4.93 µM
CC1CN(c2ncnc3[nH]cnc23)CC(C)O1 (centres unmarked) — IC50 (Sensor histidine protein kinase/phosphatase WalK (walK, Streptococcus pneumoniae, UniProt Q8DPL8); enzyme activity, ATP-competitive inhibitor): 1190 µM
CC(=O)N[C@H]1[C@@H](OC(=O)NCCCOCCOCCOCCCNC(=O)O[C@H]2O[C@H](CNC(=O)OCCOCCOCCOCCOCCOCCOCCOCCOC(=O)NC[C@H]3O[C@H](OC(=O)NCCCOCCOCCOCCCNC(=O)O[C@H]4O[C@H](CO)[C@@H](O)[C@H](O)[C@H]4NC(C)=O)[C@H](NC(C)=O)[C@@H](O)[C@@H]3O)[C@@H](O)[C@H](O)[C@H]2NC(C)=O)O[C@H](CO)[C@@H](O)[C@@H]1O — IC50 (wheat germ agglutinin (Triticum vulgaris); binding to immobilised GlcNAc, inhibitor, enzyme-linked lectin; with: HRP-labelled WGA): 0.037 µM
COc1cccc(/C=C/C(=O)c2ccc(C)o2)c1OC — IC50 (Seed linoleate 13S-lipoxygenase-1; enzyme activity, inhibitor, absorbance): 79.5 µM
C=CC(=O)Nc1ccc(-c2c(-c3ccc(Oc4ccccc4)cc3)c3c(N)ncnc3n2C)cc1 — IC50 (FGFR2; Caliper mobility shift; 30 min preincubation, with: 100 µM ATP): 0.006 µM
COc1cc(Cc2c[nH]c3ncc(C(F)(F)F)cc23)cc(OC)c1 — IC50 (FGFR2; enzyme activity, inhibitor): 0.009 µM
Cc1c2c(cc3oc(=O)cc(-c4ccc(Cl)cc4)c13)C(=O)c1cccc(O)c1C2=O — IC50 (mushroom tyrosinase; enzyme activity; with: L-DOPA): 60.1 ± 0.85 µg/mL
COC(=O)C[C@H](NC(=O)[C@H](C)NC(=O)[C@@H](NC(=O)OCc1ccccc1)C(C)C)C(=O)CF — IC50 (Caspase-6 (CASP6, Homo sapiens, UniProt P55212); enzyme activity, inhibitor, fluorescence): 0.08 µM
N#C/C(=C\c1ccc(C(N)=O)cc1)C(N)=O — IC50 (Ribosomal protein S6 kinase alpha-3, C-terminal kinase domain (RPS6KA3, Homo sapiens, UniProt P51812); enzyme activity, inhibitor; 10 mM reduced glutathione, with: 0.1 mM ATP, peptide substrate): 7 µM
CCc1c(O)ccc2nc(-c3cc(-c4cnn(C5CCNCC5)c4)cnc3N)oc12 — IC50 (JAK2; enzyme activity, inhibitor, TR-FRET): 0.28 µM
CC(=O)NCCN(CC(=O)NCCN(CC(=O)NCCN(CC(=O)NCCC(N)=O)C(=O)[C@@H](N)Cc1ccccc1)C(=O)[C@@H](N)CCCNC(=N)N)C(=O)[C@@H](N)Cc1ccccc1 — IC50 (HIV-1 TAR RNA; Tat/TAR complex displacement, FRET; room temperature, with: 10 nM Tat/TAR complex): 599 ± 5 µM
CCn1c(-c2cc(NC(=O)c3cnccn3)n[nH]2)cc2ccc(OC)cc21 — IC50 (Casein kinase II subunit alpha (CSNK2A1, Homo sapiens, UniProt P68400); enzyme activity, inhibitor, ADP detection): 15 µM
CC1=CC(C)(C)N=C(Nc2nc(C)c3cc(C)cc(C)c3n2)N1 — IC50 (CD38; hydrolase activity, fluorometric; with: ε-NAD+ substrate): 4 ± 0.48 µM
O=c1c(-c2cccnc2)c[nH]n1-c1ccc(CO)cn1 — IC50 (Prolyl hydroxylase EGLN2 (EGLN2, Homo sapiens, UniProt Q96KS0); enzyme activity, inhibitor, europium VBC binding; 10 µM FeSO4, 2 mM ascorbate, with: 20 µM 2-oxoglutarate): 0.86 µM
COc1ccc2nc(-c3cc(-c4cnn(C5CCNCC5)c4)cnc3N)oc2c1-c1ccc2cn[nH]c2c1 — IC50 (JAK2; enzyme activity, inhibitor, TR-FRET): 0.25 µM
Cn1c(=O)nc2n(C3CCCC3)nc(-c3cc(Br)ccc3F)nc-2c1=O — IC50 (TPR; inhibitor, DTNB-coupled colourimetric; with: substrate at Km): > 100 µM
COCCO[C@H]1CC[C@H](Nc2cc(=O)n(C)c3ccc(-c4cncs4)cc23)CC1 — IC50 (CD38; enzyme activity, inhibitor, fluorescence): > 1 µM
CCn1nc(-c2cc(Br)cs2)nc2c(=O)n(C)c(=O)nc1-2 — IC50 (TPR; inhibitor, DTNB-coupled colourimetric; with: substrate at Km): 13 µM
N[C@@H](CCC(=O)N[C@@H](CS[Se]Cc1ccc(-c2cccc(C(O)c3ccc(Cl)c(Cl)c3)c2)cc1)C(=O)NCC(=O)O)C(=O)O (some centres unmarked) — IC50 (Tyrosine-protein phosphatase non-receptor type 5 (PTPN5, Homo sapiens, UniProt P54829); enzyme activity, inhibitor; with: pNPP, GSH 1 mM): 1.5 ± 0.7 µM

For quick reference, copied from above:
CC(C)C[C@H](NC(=O)[C@@H](Cc1c[nH]c2ccccc12)NC(=O)[C@H](Cc1ccc(O)cc1)NC(=O)[C@H](CO)NC(=O)[C@H](Cc1c[nH]c2ccccc12)NC(=O)[C@H](Cc1c[nH]cn1)NC(=O)[C@@H]1CCC(=O)N1)C(=O)N[C@@H](CCCNC(=N)N)C(=O)N1CCC[C@H]1C(=O)NCC(N)=O — IC50 (Gonadotropin-releasing hormone receptor (Rattus norvegicus, UniProt P30969); binding, radioligand displacement; WPE-1-NB26-3 expressing Gonadotropin-releasing hormone receptor, whole cells; with: radioiodinated GnRH analogue): 0.0009 ± 0.0003 µM
COCCO[C@H]1CC[C@H](Nc2cc(=O)n(C)c3ccc(-c4cncs4)cc23)CC1 — IC50 (CD38; enzyme activity, inhibitor, fluorescence): > 1 µM
CC(=O)NCCN(CC(=O)NCCN(CC(=O)NCCN(CC(=O)NCCC(N)=O)C(=O)[C@@H](N)Cc1ccccc1)C(=O)[C@@H](N)CCCNC(=N)N)C(=O)[C@@H](N)Cc1ccccc1 — IC50 (HIV-1 TAR RNA; Tat/TAR complex displacement, FRET; room temperature, with: 10 nM Tat/TAR complex): 599 ± 5 µM
CC(C)NCc1ccc(C[C@@H]2NC(=O)[C@@H](Cc3c[nH]c4ccccc34)NC(=O)[C@@H]3CCC(=O)NCCCCCC[C@H](NC(=O)[C@H](Cc4ccc(O)c(I)c4)NC(=O)[C@H]([C@@H](C)O)NC2=O)C(=O)N[C@@H](CO)C(=O)N[C@H](C(=O)O)CSSC[C@H](N)C(=O)N[C@@H](CCCCN)C(=O)N[C@@H](Cc2ccccc2)C(=O)N3)cc1 — IC50 (Somatostatin receptor type 3 (SSTR3, Homo sapiens, UniProt P32745); ligand displacement, radioligand; cell membranes): > 1 µM
CC(=O)N[C@H]1[C@@H](OC(=O)NCCCOCCOCCOCCCNC(=O)O[C@H]2O[C@H](CNC(=O)OCCOCCOCCOCCOCCOCCOCCOCCOC(=O)NC[C@H]3O[C@H](OC(=O)NCCCOCCOCCOCCCNC(=O)O[C@H]4O[C@H](CO)[C@@H](O)[C@H](O)[C@H]4NC(C)=O)[C@H](NC(C)=O)[C@@H](O)[C@@H]3O)[C@@H](O)[C@H](O)[C@H]2NC(C)=O)O[C@H](CO)[C@@H](O)[C@@H]1O — IC50 (wheat germ agglutinin (Triticum vulgaris); binding to immobilised GlcNAc, inhibitor, enzyme-linked lectin; with: HRP-labelled WGA): 0.037 µM
